Experimental data collected from several papers.
Every numbered part comes from another study and shows a few of its results, in no order. Substitutions count along the parent as printed.

Study 1
Target: Phosphate system positive regulatory protein PHO4, full length, GST-tagged (PHO4, Saccharomyces cerevisiae, UniProt P07270, residues 1-312)
Technique: competition protein-binding microarray
Form: double-stranded DNA, one strand shown
Matrix: in vitro
Tested at: 2 µM
Setting: whole 60-bp probe, lowest competitor level
With: Cbf1 competitor, 0.05 µM
Reading: higher = stronger binding
Target sequence (chain): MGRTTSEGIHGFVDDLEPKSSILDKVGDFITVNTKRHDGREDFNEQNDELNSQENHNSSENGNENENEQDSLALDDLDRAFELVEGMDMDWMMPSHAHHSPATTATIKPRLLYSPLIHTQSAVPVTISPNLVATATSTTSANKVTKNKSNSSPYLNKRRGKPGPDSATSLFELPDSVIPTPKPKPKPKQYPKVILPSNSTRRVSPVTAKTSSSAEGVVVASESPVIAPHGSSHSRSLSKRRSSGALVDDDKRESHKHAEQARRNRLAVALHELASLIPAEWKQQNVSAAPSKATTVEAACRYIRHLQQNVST
Sequence | fluorescence intensity
GGAAAGGCTCTTCAACACGTGGCAACATAGGTTAATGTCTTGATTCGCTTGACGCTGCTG | 19100 a.u.
CAGCAATGAATTTGGCTCGTGATGGGGGCCCAGGTCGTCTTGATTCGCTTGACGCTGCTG | 6540 a.u.
TGCGCAACAACTTGCCCTGTGGGTGTATGTCTAGAAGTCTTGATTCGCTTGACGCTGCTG | 5450 a.u.
GTCTTGTCTCATTGTCACACGACTTTCCCCACTTCAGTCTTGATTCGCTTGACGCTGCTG | 6000 a.u.
ACCTATAACAAGCATCACAGCATATCAATGGGCGGTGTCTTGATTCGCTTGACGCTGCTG | 5370 a.u.
TCGATGTCAAAAAATCTCGTGAGACCTCCGGAATTTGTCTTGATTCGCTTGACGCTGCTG | 4030 a.u.
TCTTCTTTTGGTTGGCATGCGTGTAGGCTTCAAGGTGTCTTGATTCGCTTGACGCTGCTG | 10300 a.u.
GCCAGGGTGCGCTGGCACGCAGGGTAAGAGCCGCAAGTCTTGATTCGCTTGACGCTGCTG | 6740 a.u.
CGTAGGGCTGATATCCACCTGATCGACAATGTCCAAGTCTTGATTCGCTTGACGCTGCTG | 3460 a.u.
CTAACGAAGGTTTGAGCCGTGGGTGACAAGCCAAGTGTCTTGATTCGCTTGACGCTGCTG | 4260 a.u.

Study 2
Target: CCNA1, cyclin fold, Cln2 fusion (human)
Technique: yeast growth competition, sequencing
Matrix: yeast
Setting: weak parent motif
Relative to: not given
Reading: higher = stronger binding
Starting sequence: SCAPER docking peptide (human); SNARRSLNFGGST
Substitution | normalised enrichment score
SNTRRSLNFGGST [A3T] | 0.665
SNARKSLNFGGST [R5K] | 0.15
SNARRSLNFPGST [G10P] | 0.654
SNANRSLNFGGST [R4N] | 0.289
SNSRRSLNFGGST [A3S] | 0.337
SNARRILNFGGST [S6I] | 0.353
SNARRSLNFGRST [G11R] | 0.304
PNARRSLNFGGST [S1P] | 0.446

Study 3
Target: Prothrombin, mature alpha-thrombin (F2, Homo sapiens, UniProt P00734)
Technique: aptamer microarray, sandwich
Form: DNA with 2'F-ANA
Matrix: in vitro
Tested at: 200 nM
Setting: whole 15-mer aptamer, many near background
With: Cy3 exosite-II aptamer, 400 nM
Reading: higher = stronger binding
Sequence: GGTTGGTGTGGTTGG
Modification | mean fluorescence intensity [a.u.]
2'F-ANA at 1 3 6 10 12 14 15 | 92.1
2'F-ANA at 1 2 3 5 6 8 9 11 12 14 | 50
2'F-ANA at 6 7 9 10 15 | 221
2'F-ANA at 1 4 7 8 9 10 12 13 14 15 | 53.5
2'F-ANA at 1 2 5 7 8 10 11 13 | 67.2
2'F-ANA at 1 2 3 4 8 | 259
2'F-ANA at 3 4 5 8 12 14 | 60.7
2'F-ANA at 6 7 11 13 | 442
2'F-ANA at 1 2 3 7 8 9 12 15 | 635

Other studies, line by line
Substance | target | test | system | conditions | how to read | quantity | value
PhoQ, residues 284 288 289 292 302 303 SLGVVW | PhoP, residues 12 14 15 18 19 NHTVL (Escherichia coli, UniProt P23836) | Sort-seq, measured: YFP reporter | E. coli | PhoQ-PhoP variant library, with: 10 µM Mg2+ | relative to: high Mg2+ state, higher = stronger signaling | fold induction | 5.56

A few entries again (study 1):
Sequence | fluorescence intensity
CAGCAATGAATTTGGCTCGTGATGGGGGCCCAGGTCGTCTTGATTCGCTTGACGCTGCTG | 6540 a.u.
TGCGCAACAACTTGCCCTGTGGGTGTATGTCTAGAAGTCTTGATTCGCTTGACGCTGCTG | 5450 a.u.
GTCTTGTCTCATTGTCACACGACTTTCCCCACTTCAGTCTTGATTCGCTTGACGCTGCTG | 6000 a.u.
